Measurements pooled from the literature.
Each line is one published result; not all experiments were run side by side. ± marks the error that the study gave.
NMT1: Glycylpeptide N-tetradecanoyltransferase 1 (NMT1, Homo sapiens, UniProt P30419)
NR3C1: Glucocorticoid receptor (NR3C1, Homo sapiens, UniProt P04150)
HSP90B1: Endoplasmin (HSP90B1, Canis lupus familiaris, UniProt P41148)

Protein sequences, listed by entry. Tags and fused reporters are not part of them. Residues count along the entry.
UniProt P30419, whole entry: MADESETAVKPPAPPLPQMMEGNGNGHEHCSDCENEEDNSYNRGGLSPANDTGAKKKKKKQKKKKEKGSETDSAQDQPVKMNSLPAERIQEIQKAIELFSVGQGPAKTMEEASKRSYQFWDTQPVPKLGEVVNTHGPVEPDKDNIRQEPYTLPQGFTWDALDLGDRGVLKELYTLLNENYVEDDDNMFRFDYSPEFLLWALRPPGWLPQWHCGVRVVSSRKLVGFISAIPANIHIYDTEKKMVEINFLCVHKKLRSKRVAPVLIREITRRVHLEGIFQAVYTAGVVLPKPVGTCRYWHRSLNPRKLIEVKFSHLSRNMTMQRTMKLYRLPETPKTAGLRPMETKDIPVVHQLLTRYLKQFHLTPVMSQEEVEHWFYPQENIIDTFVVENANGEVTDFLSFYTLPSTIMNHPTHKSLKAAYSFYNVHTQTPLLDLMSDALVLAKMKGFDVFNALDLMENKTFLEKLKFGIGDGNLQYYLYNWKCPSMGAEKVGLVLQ
UniProt P04150, whole entry: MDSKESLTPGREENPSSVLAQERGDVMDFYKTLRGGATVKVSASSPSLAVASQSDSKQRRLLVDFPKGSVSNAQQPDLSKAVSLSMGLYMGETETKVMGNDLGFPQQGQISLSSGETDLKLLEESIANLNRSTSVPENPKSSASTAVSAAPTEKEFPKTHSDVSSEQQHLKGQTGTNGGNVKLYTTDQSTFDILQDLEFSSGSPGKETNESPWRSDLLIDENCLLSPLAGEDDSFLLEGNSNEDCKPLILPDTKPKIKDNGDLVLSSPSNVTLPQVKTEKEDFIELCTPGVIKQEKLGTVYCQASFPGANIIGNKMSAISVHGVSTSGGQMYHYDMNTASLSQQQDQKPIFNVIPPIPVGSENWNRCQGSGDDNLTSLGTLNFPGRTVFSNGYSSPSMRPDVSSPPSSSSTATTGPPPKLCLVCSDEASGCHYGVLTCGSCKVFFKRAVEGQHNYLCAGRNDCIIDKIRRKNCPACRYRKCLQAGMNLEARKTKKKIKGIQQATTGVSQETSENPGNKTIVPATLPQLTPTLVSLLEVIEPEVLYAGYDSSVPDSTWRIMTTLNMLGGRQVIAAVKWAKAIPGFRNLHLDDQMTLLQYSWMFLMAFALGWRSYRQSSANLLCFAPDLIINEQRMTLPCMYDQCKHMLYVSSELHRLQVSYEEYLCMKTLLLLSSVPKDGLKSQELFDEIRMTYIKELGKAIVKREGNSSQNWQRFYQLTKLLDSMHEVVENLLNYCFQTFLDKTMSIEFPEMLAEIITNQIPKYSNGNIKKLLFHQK
UniProt P41148, 22-804 limits assumed: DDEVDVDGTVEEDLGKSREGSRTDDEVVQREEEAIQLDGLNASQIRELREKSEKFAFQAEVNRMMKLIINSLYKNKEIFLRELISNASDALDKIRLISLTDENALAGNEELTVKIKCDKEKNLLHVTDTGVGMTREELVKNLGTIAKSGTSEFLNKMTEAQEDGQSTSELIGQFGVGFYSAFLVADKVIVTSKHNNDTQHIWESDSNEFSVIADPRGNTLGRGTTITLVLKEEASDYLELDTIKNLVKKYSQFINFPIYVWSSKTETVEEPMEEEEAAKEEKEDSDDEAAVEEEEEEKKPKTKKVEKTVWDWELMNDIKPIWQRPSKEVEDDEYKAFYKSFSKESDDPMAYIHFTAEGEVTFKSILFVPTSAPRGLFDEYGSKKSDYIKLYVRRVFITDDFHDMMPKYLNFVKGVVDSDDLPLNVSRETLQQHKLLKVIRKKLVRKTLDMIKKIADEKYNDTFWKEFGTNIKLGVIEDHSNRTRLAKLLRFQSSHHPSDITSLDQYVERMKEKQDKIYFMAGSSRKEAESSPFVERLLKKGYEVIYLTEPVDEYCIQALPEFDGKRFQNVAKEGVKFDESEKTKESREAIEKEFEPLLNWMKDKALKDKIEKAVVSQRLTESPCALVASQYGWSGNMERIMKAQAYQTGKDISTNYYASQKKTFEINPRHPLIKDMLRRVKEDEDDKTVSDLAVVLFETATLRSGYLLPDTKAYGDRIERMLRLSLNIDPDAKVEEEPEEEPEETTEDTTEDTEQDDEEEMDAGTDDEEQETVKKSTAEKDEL
UniProt Q9NYA1, 1-470 isoform 2: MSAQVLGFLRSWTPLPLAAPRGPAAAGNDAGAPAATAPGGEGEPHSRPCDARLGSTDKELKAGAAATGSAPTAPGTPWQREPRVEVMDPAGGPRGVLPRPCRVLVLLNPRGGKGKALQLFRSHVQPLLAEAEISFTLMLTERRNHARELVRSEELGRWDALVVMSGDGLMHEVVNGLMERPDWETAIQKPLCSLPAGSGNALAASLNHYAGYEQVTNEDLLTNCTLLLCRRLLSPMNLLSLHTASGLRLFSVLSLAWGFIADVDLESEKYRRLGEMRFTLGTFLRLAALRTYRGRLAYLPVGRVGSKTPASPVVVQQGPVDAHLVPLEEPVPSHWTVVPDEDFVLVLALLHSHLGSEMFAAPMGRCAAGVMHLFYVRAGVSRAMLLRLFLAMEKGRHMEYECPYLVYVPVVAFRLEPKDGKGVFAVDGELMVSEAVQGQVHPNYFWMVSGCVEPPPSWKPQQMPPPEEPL
UniProt P04181, 26-439 limits assumed: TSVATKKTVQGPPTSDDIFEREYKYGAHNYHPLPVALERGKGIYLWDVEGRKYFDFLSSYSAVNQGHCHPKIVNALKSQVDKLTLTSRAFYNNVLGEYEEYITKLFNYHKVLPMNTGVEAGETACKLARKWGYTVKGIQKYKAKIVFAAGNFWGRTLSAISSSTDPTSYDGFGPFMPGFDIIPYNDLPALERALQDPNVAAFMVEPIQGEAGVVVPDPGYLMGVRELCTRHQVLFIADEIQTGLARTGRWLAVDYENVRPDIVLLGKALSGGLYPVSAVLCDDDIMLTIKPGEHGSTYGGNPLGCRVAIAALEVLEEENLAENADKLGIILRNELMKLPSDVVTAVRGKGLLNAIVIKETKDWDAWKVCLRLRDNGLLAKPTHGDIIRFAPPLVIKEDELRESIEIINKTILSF
UniProt P36888, 27-993 K663Q limits assumed: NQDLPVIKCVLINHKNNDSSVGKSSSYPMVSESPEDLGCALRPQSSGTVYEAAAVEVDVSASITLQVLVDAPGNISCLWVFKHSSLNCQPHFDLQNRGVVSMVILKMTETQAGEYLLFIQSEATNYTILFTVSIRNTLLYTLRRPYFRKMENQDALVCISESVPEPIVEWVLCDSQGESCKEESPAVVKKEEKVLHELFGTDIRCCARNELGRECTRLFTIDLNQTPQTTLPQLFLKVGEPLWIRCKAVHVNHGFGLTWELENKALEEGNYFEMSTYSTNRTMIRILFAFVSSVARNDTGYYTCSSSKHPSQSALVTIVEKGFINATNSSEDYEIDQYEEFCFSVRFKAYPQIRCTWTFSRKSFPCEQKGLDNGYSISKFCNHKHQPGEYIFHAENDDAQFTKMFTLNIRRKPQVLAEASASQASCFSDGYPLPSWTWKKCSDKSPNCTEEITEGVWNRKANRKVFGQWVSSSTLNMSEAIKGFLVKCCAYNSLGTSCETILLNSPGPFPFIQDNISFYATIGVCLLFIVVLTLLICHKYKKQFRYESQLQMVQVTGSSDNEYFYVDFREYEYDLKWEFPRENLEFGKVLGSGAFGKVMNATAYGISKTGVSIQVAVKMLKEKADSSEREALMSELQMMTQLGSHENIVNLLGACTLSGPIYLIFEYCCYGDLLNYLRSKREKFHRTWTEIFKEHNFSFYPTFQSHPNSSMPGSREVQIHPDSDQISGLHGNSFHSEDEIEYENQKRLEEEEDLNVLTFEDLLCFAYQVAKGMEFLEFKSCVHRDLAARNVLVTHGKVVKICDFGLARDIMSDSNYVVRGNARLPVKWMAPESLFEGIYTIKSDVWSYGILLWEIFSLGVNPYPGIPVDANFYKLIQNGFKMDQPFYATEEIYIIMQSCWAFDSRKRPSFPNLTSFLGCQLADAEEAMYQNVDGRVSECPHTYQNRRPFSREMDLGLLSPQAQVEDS
UniProt P00519, whole entry: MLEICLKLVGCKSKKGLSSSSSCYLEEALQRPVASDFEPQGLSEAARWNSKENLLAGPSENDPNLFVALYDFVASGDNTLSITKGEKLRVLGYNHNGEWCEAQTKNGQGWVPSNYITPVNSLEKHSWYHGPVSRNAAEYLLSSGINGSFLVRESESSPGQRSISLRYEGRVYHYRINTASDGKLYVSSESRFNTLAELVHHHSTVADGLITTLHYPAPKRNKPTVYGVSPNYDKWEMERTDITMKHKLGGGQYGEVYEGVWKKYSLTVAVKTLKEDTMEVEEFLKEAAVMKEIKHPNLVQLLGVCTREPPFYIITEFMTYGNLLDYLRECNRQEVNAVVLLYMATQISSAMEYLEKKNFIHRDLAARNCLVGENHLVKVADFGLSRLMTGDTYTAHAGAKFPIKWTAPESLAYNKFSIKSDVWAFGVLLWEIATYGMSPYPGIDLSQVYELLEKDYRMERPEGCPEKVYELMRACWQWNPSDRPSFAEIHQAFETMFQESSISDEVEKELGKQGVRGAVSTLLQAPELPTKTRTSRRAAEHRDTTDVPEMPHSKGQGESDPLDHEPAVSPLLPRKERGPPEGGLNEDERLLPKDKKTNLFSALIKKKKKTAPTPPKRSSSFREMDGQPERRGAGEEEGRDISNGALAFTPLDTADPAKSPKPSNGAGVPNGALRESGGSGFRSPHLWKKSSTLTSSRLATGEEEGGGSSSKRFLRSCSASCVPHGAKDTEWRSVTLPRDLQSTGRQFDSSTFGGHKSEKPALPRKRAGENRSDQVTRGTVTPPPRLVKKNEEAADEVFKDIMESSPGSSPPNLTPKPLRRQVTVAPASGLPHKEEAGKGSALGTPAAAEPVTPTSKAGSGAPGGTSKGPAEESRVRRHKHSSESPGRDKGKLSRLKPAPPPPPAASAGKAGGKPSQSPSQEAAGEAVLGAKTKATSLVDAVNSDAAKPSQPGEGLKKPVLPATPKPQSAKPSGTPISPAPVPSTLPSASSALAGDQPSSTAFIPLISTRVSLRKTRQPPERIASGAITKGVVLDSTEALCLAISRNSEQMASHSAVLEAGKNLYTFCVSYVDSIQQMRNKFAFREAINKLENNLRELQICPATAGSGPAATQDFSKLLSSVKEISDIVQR
UniProt P26040, whole entry: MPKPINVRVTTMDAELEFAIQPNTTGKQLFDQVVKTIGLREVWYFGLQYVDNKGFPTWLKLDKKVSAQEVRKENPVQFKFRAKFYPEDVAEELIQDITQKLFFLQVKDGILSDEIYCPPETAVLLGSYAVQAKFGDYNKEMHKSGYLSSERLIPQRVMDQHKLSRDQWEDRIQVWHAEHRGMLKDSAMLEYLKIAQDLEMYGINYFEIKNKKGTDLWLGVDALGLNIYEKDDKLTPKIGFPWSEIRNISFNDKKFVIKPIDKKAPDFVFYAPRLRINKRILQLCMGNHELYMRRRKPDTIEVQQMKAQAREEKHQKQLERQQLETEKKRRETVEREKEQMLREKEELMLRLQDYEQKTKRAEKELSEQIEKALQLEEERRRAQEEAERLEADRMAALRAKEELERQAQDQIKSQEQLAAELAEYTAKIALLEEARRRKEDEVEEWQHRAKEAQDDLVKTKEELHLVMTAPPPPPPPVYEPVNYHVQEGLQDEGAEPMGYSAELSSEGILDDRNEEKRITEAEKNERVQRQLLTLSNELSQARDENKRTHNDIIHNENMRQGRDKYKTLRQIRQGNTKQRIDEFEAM
UniProt P30542, whole entry: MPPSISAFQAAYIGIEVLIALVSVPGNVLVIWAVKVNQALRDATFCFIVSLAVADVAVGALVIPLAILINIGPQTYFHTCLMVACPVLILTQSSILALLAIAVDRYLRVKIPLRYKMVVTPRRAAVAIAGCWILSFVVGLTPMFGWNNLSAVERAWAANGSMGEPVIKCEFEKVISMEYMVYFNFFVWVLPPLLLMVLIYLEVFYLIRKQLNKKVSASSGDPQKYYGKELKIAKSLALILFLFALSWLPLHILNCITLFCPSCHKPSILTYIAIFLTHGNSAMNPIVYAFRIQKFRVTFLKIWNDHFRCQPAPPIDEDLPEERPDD
UniProt P51452, whole entry: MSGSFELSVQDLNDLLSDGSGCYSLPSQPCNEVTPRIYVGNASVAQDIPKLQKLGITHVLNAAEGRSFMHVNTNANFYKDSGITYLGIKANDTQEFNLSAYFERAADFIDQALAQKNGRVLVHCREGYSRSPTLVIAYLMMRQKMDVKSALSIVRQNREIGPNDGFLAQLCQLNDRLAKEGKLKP
UniProt P35236, whole entry: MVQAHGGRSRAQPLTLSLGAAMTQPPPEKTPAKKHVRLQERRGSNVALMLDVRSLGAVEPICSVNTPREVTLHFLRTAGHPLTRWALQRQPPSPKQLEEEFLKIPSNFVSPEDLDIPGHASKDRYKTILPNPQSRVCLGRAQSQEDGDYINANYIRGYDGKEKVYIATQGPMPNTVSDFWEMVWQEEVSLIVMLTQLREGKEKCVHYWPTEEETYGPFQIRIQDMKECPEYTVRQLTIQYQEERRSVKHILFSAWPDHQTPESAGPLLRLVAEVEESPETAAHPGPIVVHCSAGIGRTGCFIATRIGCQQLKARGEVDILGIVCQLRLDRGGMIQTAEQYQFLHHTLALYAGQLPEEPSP

SMILES | tested on | test | test system | setting | scale | quantity | value
CCc1c(-c2ccccc2)nn2c(=O)cc(-c3cccc(C(=O)O)c3)[nH]c12 |  |  | mouse | 10 mg/kg, 10 h |  | plasma level | not detected
CC[C@H](C)[C@H](NC(=O)[C@H](CS)NC(=O)CN)C(=O)N[C@@H](CCCCN)C(=O)N[C@@H](CO)C(=O)N[C@@H](CCCCN)C(=O)NCC(=O)N[C@@H](CCCCN)C(=O)O | NMT1 | substrate |  |  |  | Km | 22.5 µM
C[C@H]1C[C@@H]2[C@H]3CCC4=CC(=O)C=C[C@@]4(C)[C@]3(Cl)[C@@H](Cl)C[C@]2(C)[C@]1(O)C(=O)COP(=O)(O)O | NR3C1 | nuclear translocation, agonist, enzyme fragment complementation |  |  |  | maximal activity | 200%
O=C(Nc1ccc(Cl)cc1)C(NS(=O)(=O)c1cccs1)c1ccccc1 (single isomer, unassigned) | Uracil nucleotide/cysteinyl leukotriene receptor (GPR17, Homo sapiens, UniProt Q13304) | β-arrestin recruitment, antagonist, HTRF | 1321N1 expressing target |  |  | Schild slope | 0.81
O=C1C(=Cc2ccc(O)c(O)c2)Oc2ccccc21 | Sphingosine kinase 1 (SPHK1, Homo sapiens, UniProt Q9NYA1) | inhibitor, FlashPlate |  |  |  | Ki | 10 µM
Fc1cc(-c2ccc3c(n2)[nH]c2ccncc23)ccn1 [isotope labelled] | Microtubule-associated protein tau, paired helical filaments (MAPT, Homo sapiens, UniProt P10636) | radioligand binding | PHF tau brain homogenate | 52.06 nM | higher = more binding | specific binding | 18.6 a.u.
N[C@H]1C=C(C(=O)O)CC[C@@H]1F | Ornithine aminotransferase, mitochondrial (OAT, Homo sapiens, UniProt P04181) | enzyme inactivation, mechanism-based inactivator |  |  |  | KI | 31 ± 7 µM
Nc1c(C(=O)Nc2c(F)cc(F)cc2Br)sc2nc3c(cc12)CCC3 | H1299 | DCFH-DA |  | 10 µM, 12 h |  | ROS level | increased
CC(=O)[C@]1(O)CC[C@@H]2[C@H]3C[C@@H](C)C4=CC(=O)CC[C@@]4(C)[C@H]3[C@@H](O)C[C@]21C | NR3C1 | nuclear translocation, agonist, enzyme fragment complementation |  |  |  | maximal activity | 90%
Fc1cccc(-n2cnc3c(NCc4nc5cc(Cl)ccc5[nH]4)nc(N4CCNCC4)nc32)c1 | Receptor-type tyrosine-protein kinase FLT3 (FLT3, Homo sapiens, UniProt P36888, K663Q) | KINOMEscan competition binding |  | 10 µM | baseline: control | remaining binding | 13%
Cc1c(O)cc2c(c1C)O[C@](C)(CCCC(C)C)CC2 | normal prostate epithelial cells | cell viability, MTT |  | 24 h |  | IC50 | ~40 µM
CC(C)C[C@H](NC(=O)[C@H](CCC(N)=O)NC(=O)[C@H](CCC(N)=O)NC(=O)[C@H](CO)NC(=O)[C@H](C)NC(=O)[C@H](CCCCN)NC(=O)[C@H](CCC(N)=O)NC(=O)CN)C(=O)O | NMT1 | substrate |  |  |  | Km | 15.7 µM
C[C@H]1C[C@H]2[C@H]3CCC4=CC(=O)C=C[C@@]4(C)[C@]3(F)[C@H](O)C[C@]2(C)[C@@]1(O)C(=O)COP(=O)(O)O | NR3C1 | nuclear translocation, agonist, enzyme fragment complementation |  |  |  | Hill slope | 1.3
O=C(ON1C(=O)C2CN(C(=O)N3CCOCC3)CCN2C1=O)N1CCC(CCc2ccc(Cl)cc2)CC1 (stereo not shown) | Acyl-protein thioesterase 1 (Lypla1, Mus musculus, UniProt P97823) | enzyme activity, inhibitor, gel-based ABPP | C57BL/6 mice, liver and kidney | intraperitoneal, 4 h, not brain |  | dose for near-complete inhibition | 5 mg/kg
CCN1CCN(Cc2ccc(NC(=O)c3ccc(C)c(Oc4ncnc5cc(OC)c(OC)cc45)c3)cc2C(F)(F)F)CC1 | Tyrosine-protein kinase ABL1 (ABL1, Homo sapiens, UniProt P00519) | KINOMEscan competition binding |  | 1.0 µM |  | residual probe binding | 0.2%
Cc1ccc([C@H](CC(=O)O)NC(=O)Nc2c(O)c(C)cn(Cc3ccccc3Cl)c2=O)cc1 |  | flow cytometry MFI | LAX7R xenograft, NSG mouse, bone marrow leukemic cells | intraperitoneal, 60 mg/kg, 8 h | baseline: PBS | human alpha-4 level | decreased
Cc1cccc(NC(=O)c2nn(Cc3cnc[nH]3)c3c2CN(C(=O)c2ccc[nH]2)CC3)c1 | IDH1 R132C AML cells | Hoechst/Pyronin Y staining |  | 3 µM, 7 days |  | G1-phase cells | 30.6 ± 8.9%

SMILES | tested on | test | test system | setting | scale | quantity | value
Cc1cc(C)c2nc3s/c(=C\c4ccc(-c5ccccc5C(=O)O)o4)c(=O)n3c2c1 | Receptor-type tyrosine-protein phosphatase R (PTPRR, Homo sapiens, UniProt Q15256) | phosphatase activity, inhibitor |  | with: OMFP |  | IC50 | 20 µM
CC1=Cc2ccccc2C12CCN(C1Cc3ccccc3CC1O)CC2 (single isomer, unassigned) | Vesicular acetylcholine transporter (Rattus norvegicus, UniProt Q62666) |  |  |  | baseline: Ki sigma1 (human) over Ki VAChT | selectivity ratio | 29
O=C1C=C(NCCc2cc(Br)c(O)c(Br)c2)C(=O)c2ncccc21 | Ezrin (Ezr, Mus musculus, UniProt P26040) | inhibitor, immunoprecipitation and immunoblotting, measured: endogenous ezrin threonine 567 | K7M2 mouse osteosarcoma cells | 10 µM, 6 h |  | ezrin phosphorylation | inhibited
C[C@H]1CCCN1Cc1cc2cnc(NC(=O)c3ccc4c(cnn4C)c3)cc2[nH]1 | Protein ENL (MLLT1, Homo sapiens, UniProt Q03111, Y78A) | cellular thermal shift | HEK293 expressing Flag-ENL Y78A |  |  | thermal stabilisation | decreased
O=C(Nc1cccnn1)N1CC(Oc2ccc(-c3ccccc3F)cn2)C1 | Fatty-acid amide hydrolase 1 (FAAH, Homo sapiens, UniProt O00519) | enzyme activity, inhibitor | healthy humans, blood | oral, dose not given, repeated dosing |  | dose for complete inhibition | 50 mg
CC[C@H](C)[C@H](NC(=O)[C@H](CS)NC(=O)CN)C(=O)N[C@@H](CCCCN)C(=O)N[C@@H](CO)C(=O)N[C@@H](CCCCN)C(=O)N[C@@H](CCC(=O)O)C(=O)N[C@@H](CC(N)=O)C(=O)O | NMT1 | substrate |  |  |  | Km | 14.4 µM
CC[C@H](C)[C@H]1O[C@]2(CC[C@@H]1C)C[C@@H]1C[C@@H](C/C=C(\C)[C@@H](O[C@H]3C[C@H](OC)[C@@H](O[C@H]4C[C@H](OC)[C@@H](O)[C@H](C)O4)[C@H](C)O3)[C@@H](C)/C=C/C=C3\CO[C@@H]4[C@H](O)C(C)=C[C@@H](C(=O)O1)[C@]34O)O2 | Nuclear receptor subfamily 2 group C member 2 (Homo sapiens, UniProt P49116) | SPR imaging | immobilized compound microarray | with: TR4-LBD 600 nM analyte |  | koff | 8.29e-06 s⁻¹
Cn1cc2c(nc(NCCCCCNC(=S)Nc3ccc(-c4c5ccc(=O)cc-5oc5cc(O)ccc45)c(C(=O)O)c3)n3nc(-c4ccco4)nc23)n1 | Adenosine receptor A1 (ADORA1, Homo sapiens, UniProt P30542) | binding | CHO | 10 µM, with: [3H]R-PIA |  | inhibition | 9 ± 5%
CC(C)C[C@H](NC(=O)[C@H](CS)NC(=O)[C@H](CC(N)=O)NC(=O)CN)C(=O)N[C@@H](CCCCN)C(=O)N[C@@H](CO)C(=O)N1CCC[C@H]1C(=O)N[C@H](C(=O)O)[C@@H](C)O | NMT1 | substrate |  |  |  | Km | 16.7 µM
CC[C@@H]1C(=O)N(C)c2cnc(Nc3ccc(C(=O)NC4CCN(C)CC4)cc3OC)nc2N1C1CCCC1 | Protein polybromo-1, BD3 (PBRM1, Homo sapiens, UniProt Q86U86) |  |  | 10 µM |  | delta Tm | -0.04 ± 0.31 °C
CC(C)C[C@H](NC(=O)[C@H](C)NC(=O)[C@H](CO)NC(=O)[C@H](CC(N)=O)NC(=O)[C@H](CCC(=O)O)NC(=O)[C@H](CO)NC(=O)CN)C(=O)N[C@@H](CCCCN)C(=O)O | NMT1 | substrate |  |  |  | Km | 0.8 µM
O=C(/C=C/c1nc2ccccc2[nH]1)c1c(-c2ccccc2)c2cc(Cl)ccc2[nH]c1=O | Inhibitor of nuclear factor kappa-B kinase subunit alpha (CHUK, Homo sapiens, UniProt O15111) | SelectScreen profiling |  | concentration not given, panel of 100 kinases |  | kinase inhibition | inhibited
COC(=O)c1c(O)cc(O)c(Cl)c1CCc1cccc(OC)c1Cc1ccccc1 | HSP90B1 | fluorescence polarization |  | with: FITC-geldanamycin tracer | baseline: Grp94 over Hsp90α | selectivity ratio | 19 fold
O=C1CCC(N2C(=O)c3cccc(NCCOCCOCCOCCN4CCN(c5ccc(-c6ccc7c(c6)C(=O)N(C(C(=O)Nc6nccs6)c6ccccc6)C7)cn5)CC4)c3C2=O)C(=O)N1 (stereo not shown) | Epidermal growth factor receptor (EGFR, Homo sapiens, UniProt P00533, L718Q/L858R/T790M) | degrader, Western blot | Ba/F3 EGFR L858R/T790M/L718Q | 0.1 µM, 24 h |  | degradation | 71%
O=c1/c(=C/c2ccccc2Cl)sc2nc3cc(Br)cnc3n12 | Dual specificity protein phosphatase 3 (DUSP3, Homo sapiens, UniProt P51452) | phosphatase activity, inhibitor |  | with: OMFP |  | IC50 | > 100 µM
COc1cc(CC(=O)NCC(NC(=O)C(CCCNC(=O)c2cccc(I)c2)NC(=O)C(Cc2ccc(C(F)(F)P(=O)(O)O)cc2)NC(=O)c2ccc(C)c(Br)c2)C(N)=O)ccc1O (stereo not shown) | Tyrosine-protein phosphatase non-receptor type 7 (PTPN7, Homo sapiens, UniProt P35236) | enzyme activity |  | 10 µM |  | inhibition | no inhibition
COC(=O)c1c(O)cc(O)c(Cl)c1CCc1cccc(O)c1Cc1ccccc1 | HSP90B1 | fluorescence polarization |  | with: FITC-geldanamycin tracer | baseline: Grp94 over Hsp90α | selectivity ratio | 4 fold

For quick reference, copied from above:
SMILES | tested on | test | test system | setting | scale | quantity | value
C[C@H]1C[C@H]2[C@H]3CCC4=CC(=O)C=C[C@@]4(C)[C@]3(F)[C@H](O)C[C@]2(C)[C@@]1(O)C(=O)COP(=O)(O)O | NR3C1 | nuclear translocation, agonist, enzyme fragment complementation |  |  |  | Hill slope | 1.3
Cc1cc(C)c2nc3s/c(=C\c4ccc(-c5ccccc5C(=O)O)o4)c(=O)n3c2c1 | Receptor-type tyrosine-protein phosphatase R (PTPRR, Homo sapiens, UniProt Q15256) | phosphatase activity, inhibitor |  | with: OMFP |  | IC50 | 20 µM
CC1=Cc2ccccc2C12CCN(C1Cc3ccccc3CC1O)CC2 (single isomer, unassigned) | Vesicular acetylcholine transporter (Rattus norvegicus, UniProt Q62666) |  |  |  | baseline: Ki sigma1 (human) over Ki VAChT | selectivity ratio | 29
